Published values gathered from unrelated publications.
Several values in a cell are separate wells, animals, samples, runs or records. ± gives the spread as reported.
FFAR4: Free fatty acid receptor 4 (FFAR4, Homo sapiens, UniProt Q5NUL3)
TRPM8: Transient receptor potential cation channel subfamily M member 8 (TRPM8, Homo sapiens, UniProt Q7Z2W7)
GAP50: Glideosome-associated protein 50 (GAP50, Plasmodium falciparum, UniProt Q8I2X3)
NADH dehydrogenase [ubiquinone] iron-sulfur protein 7, mitochondrial/NADH dehydrogenase [ubiquinone] iron-sulfur protein 2, mitochondrial/MT-ND1: NADH dehydrogenase [ubiquinone] iron-sulfur protein 7, mitochondrial/NADH dehydrogenase [ubiquinone] iron-sulfur protein 2, mitochondrial/MT-ND1 (Homo sapiens, UniProt O75251+O75306+P03886)

Compound = COc1c(Nc2cc(C(F)(F)F)cc(C(F)(F)F)c2)c(=O)c1=O; tested on = CD209 antigen (CD209, Homo sapiens, UniProt Q9NNX6); test = covalent labelling, intact protein MS; setting = 50 µM; quantity = kobs; result = 0.00128 min⁻¹
Compound = O=c1cc(NCCCc2ccccc2)[nH]c(=O)[nH]1; tested on = FFAR4; test = agonist, β-arrestin recruitment; test system = CHO cells; setting = 10 µM; quantity = activation; result = 1%
Compound = O=C(NO)c1ccc(CN2CCCCc3ccccc32)c(F)c1; tested on = benzodiazepine site, rat brain; test = radioligand binding; setting = 10 µM; quantity = inhibition of radioligand binding; result = 21.4%
Compound = CCN1CCN(c2cc(N3CCN(CC)CC3)nc(NCCNc3ccnc4cc(Cl)ccc34)n2)CC1; tested on = Nuclear receptor subfamily 4 group A member 2, LBD; with RXRα (Homo sapiens, UniProt P43354); test = reporter gene, full-length heterodimer DR5 reporter; setting = 20 µM; scale = baseline: vehicle; quantity = activation; result = 1.68 ± 0.5 fold
Compound = O=c1nc(SCc2cc(F)cc(C(F)(F)F)c2)nc(SCc2ccc3sccc3c2)[nH]1; tested on = TOP2A (Homo sapiens, UniProt P11388); test = ATPase activity; setting = 3.9 µM, together with: ATP 1 mM; quantity = ATP hydrolysis rate; result = 2.16 µM/min and 2.29 µM/min
Compound = O=c1cc(NCCc2ccc(Br)cc2)[nH]c(=O)[nH]1; tested on = FFAR4; test = agonist, β-arrestin recruitment; test system = CHO cells; setting = 10 µM; scale = baseline: 30 µM TUG-891; quantity = agonist effect; result = 0 ± 1%
Compound = CN([C@@H](Cc1ccc(OS(=O)(=O)c2cccc3cnccc23)cc1)C(=O)N1CCN(c2ccccc2)CC1)S(=O)(=O)c1cccc2cnccc12; tested on = TRPM8; test = antagonist; test system = HEK293; setting = 5 µM; scale = baseline: control; quantity = remaining activity; result = 98.1 ± 3.02%
Compound = CN(C)C(=O)C(CCN1CCC(O)(c2ccc(Cl)cc2)CC1)(c1ccccc1)c1ccccc1; tested on = Calcium-activated potassium channel subunit alpha-1, with LRRC26 γ1 subunit (KCNMA1, Homo sapiens, UniProt Q12791); test = BK channel conductance, inside-out patch clamp; setting = BKα/γ1, Vm 30 mV, nominally Ca2+-free; quantity = Hill coefficient; result = 0.831 ± 0.14
Compound = NCc1ccccc1; tested on = Maoa (Rattus norvegicus, UniProt P21396); test = kcat pH profile ES complex, substrate; setting = pH 6.5-9.5; quantity = pKa; result = 8.2 ± 0.1
Compound = C=CC(=O)N1CCC(COCC(=O)N2CCN(c3nc(-c4cnc(N)nc4C(F)F)nc(N4CCOC[C@@H]4C)n3)CC2)CC1; tested on = Ribosomal protein S6 kinase alpha-1, N-terminal kinase domain (RPS6KA1, Homo sapiens, UniProt Q15418); test = KINOMEscan; setting = 1 µM; quantity = remaining binding; result = 93%
Compound = CNc1nnc(Sc2cnn(-c3ccccc3)c(=O)c2Cl)s1; tested on = GAP50; test = binding, surface plasmon resonance; setting = 1:1 binding model; quantity = kon; result = 1960 M⁻¹ s⁻¹
Compound = C[C@@H](O)[C@@H](CO)NC(=O)[C@@H](CCCNC(=N)N)NC(=O)[C@@H]1CCCN1C(=O)[C@@H]1CSSC[C@H](NC(=O)[C@H](Cc2ccccc2)NC(=O)CN2CCN(CC(=O)O)CCN(CC(=O)O)CCN(CC(=O)O)CC2)C(=O)N[C@@H](Cc2ccc(O)cc2)C(=O)N[C@@H](Cc2ccccc2)C(=O)N[C@@H](CCC(N)=O)C(=O)N[C@@H](CC(N)=O)C(=O)N1 [gallium-68 labelled]; tested on = AVPR1B (Homo sapiens, UniProt P47901); test = receptor binding, radioimmunoassay; setting = concentration not given, together with: vasopressin V1b 62.5 nM; quantity = binding; result = 23% and 26.4% and 27.7%
Compound = O=c1[nH]c(NCCc2ccc(Br)cc2)c(Br)c(=O)[nH]1; tested on = FFAR4; test = agonist, β-arrestin recruitment; test system = CHO cells; setting = 10 µM; scale = baseline: 30 µM TUG-891; quantity = agonist effect; result = 0%
Compound = O=C1Cc2c([nH]c3ccc([N+](=O)[O-])cc23)-c2ccccc2N1; tested on = TRPM8; test = antagonist; test system = HEK293; setting = 5 µM; scale = baseline: control; quantity = remaining activity; result = 110 ± 15.2%
Compound = Cn1ncc2c(NCCO)nc(Nc3ccc(F)c(F)c3)nc21; tested on = 3-oxoacyl-[acyl-carrier-protein] reductase FabG (fabG, Pseudomonas aeruginosa, UniProt O54438); test = enzyme activity, inhibitor, NADPH fluorescence; setting = reverse reaction, together with: 3-OH-decanoyl-NAC, NADP; quantity = Hill slope; result = 1.7
Compound = CCN1CCC[C@H]1CNC(=O)c1c(O)c(Cl)cc(Cl)c1OC; tested on = Probable G-protein coupled receptor 153 (GPR153, Homo sapiens, UniProt Q6NV75); test = β-arrestin recruitment, TANGO luminescence, item: GPR153; setting = concentration not given; scale = baseline: basal luminescence; quantity = log2 fold change; result = 0.037
Compound = O=C(COc1cccc(Cl)c1Cl)Nc1cc(C2CCC2)nn1C1CCC(F)(F)CC1; tested on = Kir3.1/Kir3.2 (Homo sapiens, UniProt P48051+P48549); test = thallium flux, activator; test system = HEK293; scale = baseline: standard compound; quantity = Emax; result = 30%
Compound = CCNC(=O)/C=C/c1cccc(Br)c1; tested on = SLC6A19 (Homo sapiens, UniProt Q695T7); test = inhibitor, FLIPR membrane potential; test system = CHO-BC cells; setting = 0.001 µM, unit not given; scale = baseline: no inhibitor; quantity = remaining transport activity; result = 1.06
Compound = O=C(CN(CCCCI)CCCN1CCN(C2CCCCC2)CC1)Nc1ccc(C(=O)c2ccccc2)cc1; tested on = TMEM97 (Homo sapiens, UniProt Q5BJF2); test = radioligand binding; test system = RT-4 cell membranes; scale = baseline: sigma1 Ki over sigma2 Ki; quantity = Ki ratio; result = 3.84
Compound = CCOc1nc2cccc(C(=O)O)c2n1Cc1ccc(-c2ccccc2-c2nnn[nH]2)cc1; tested on = LCN2 (Homo sapiens, UniProt P80188, C107S); test = NMR titration line-shape fit; setting = induced fit model; quantity = koff; result = 63 ± 1 s⁻¹
Compound = N=C(NO)NCC[C@H](N)C(=O)O; tested on = Arginase (Schistosoma mansoni, UniProt Q6WVP6); test = isothermal titration calorimetry; setting = concentration not given; quantity = binding stoichiometry; result = 0.85 ± 0.01
Compound = NC(=O)NOCCCCCCCCCCCCCCCCCCCC[P+](c1ccccc1)(c1ccccc1)c1ccccc1.O=C([O-])C(F)(F)F; tested on = NADH dehydrogenase [ubiquinone] iron-sulfur protein 7, mitochondrial/NADH dehydrogenase [ubiquinone] iron-sulfur protein 2, mitochondrial/MT-ND1; test = complex I-dependent respiration, Seahorse XF96; test system = HCT-116; setting = 20 µM, 24 h; scale = baseline: control; quantity = oxygen consumption rate; result = 0 ± 4.42%
Compound = Cc1cc2c(c(=O)[nH]1)C(=O)O/C2=C\c1ccccc1OCC1CC1; tested on = Dual specificity calcium/calmodulin-dependent 3',5'-cyclic nucleotide phosphodiesterase 1C, isoform PDE1C2 (PDE1C, Homo sapiens, UniProt Q14123); test = enzyme activity, inhibitor; setting = together with: 3H-cGMP substrate; quantity = binding free energy; result = -9.16 kcal/mol
Compound = NC(=O)NOCCCCCCCCCCCCCCCC[P+](c1ccccc1)(c1ccccc1)c1ccccc1.O=C([O-])C(F)(F)F; tested on = NADH dehydrogenase [ubiquinone] iron-sulfur protein 7, mitochondrial/NADH dehydrogenase [ubiquinone] iron-sulfur protein 2, mitochondrial/MT-ND1; test = complex I-dependent respiration, Seahorse XF96; test system = HCT-116; setting = 0.3 µM, 24 h; scale = baseline: control; quantity = oxygen consumption rate; result = 81.1 ± 8.84%
Compound = O=c1cc(NCCc2ccccc2F)[nH]c(=O)[nH]1; tested on = FFAR4; test = antagonist, β-arrestin recruitment; test system = CHO cells; setting = 10 µM; quantity = inhibition; result = 15 ± 4%
Compound = O=C1NC(=O)/C(=C/c2ccc(OCCNc3nc4c(cnn4C4CCCC4)c(=O)[nH]3)c(F)c2)S1; tested on = PDE8A (Homo sapiens, UniProt O60658); scale = baseline: PDE8A over PDE9; quantity = selectivity ratio; result = 181 fold
Compound = Cn1cc(-c2ccc(-c3cncc(Cl)c3N3CCC4(CCNC4=O)CC3)cc2)cn1; tested on = COLO 205; test = gene expression, microarray, item: EDN2 mRNA; setting = concentration not given, 6 h; scale = baseline: untreated cells; quantity = log2 fold change; result = 2.81
Compound = CCCCCCCCNc1[nH]c(=O)[nH]c(=O)c1N=O; tested on = FFAR4; test = agonist, β-arrestin recruitment; test system = CHO cells; setting = 10 µM; scale = baseline: 30 µM TUG-891; quantity = agonist effect; result = 0 ± 1%
Compound = O=S(=O)(O)C1CCNCC1; tested on = SLC6A6 (Homo sapiens, UniProt P31641, Y138A); test = binding, microscale thermophoresis; setting = 61 nM, room temperature, together with: 50 nM labelled protein; scale = higher = more binding; quantity = normalised MST signal; result = -0.0308
Compound = Nc1nc2cc(F)c(F)cc2[nH]1; tested on = HVCN1 (Homo sapiens, UniProt Q96D96, F150A); test = proton current, inhibitor, inside-out patch clamp; quantity = Hill coefficient; result = 1.27 ± 0.1
Compound = Cc1ccc(C(=O)Nc2ccc(S(=O)(=O)O)c3cc(S(=O)(=O)O)cc(S(=O)(=O)O)c23)cc1NC(=O)c1cccc(NC(=O)Nc2cccc(C(=O)Nc3cc(C(=O)Nc4ccc(S(=O)(=O)O)c5cc(S(=O)(=O)O)cc(S(=O)(=O)O)c45)ccc3C)c2)c1; tested on = GAP50; test = binding, surface plasmon resonance; setting = 1:1 binding model; quantity = koff; result = 0.0289 s⁻¹
Compound = Nc1ncnc2c1ncn2[C@@H]1O[C@H](COP(=O)(O)CP(=O)(O)OP(=O)(O)O)[C@@H](O)[C@H]1O; tested on = P2X purinoceptor 1 (P2RX1, Homo sapiens, UniProt P51575, E122A); test = calcium influx; setting = 10 nM; scale = baseline: ionomycin response; quantity = calcium influx; result = 0.521%
Compound = Cn1cnc2cc3c(Nc4cccc(Br)c4)ncnc3cc21; tested on = TRPM8; test = antagonist; test system = HEK293; setting = 5 µM; scale = baseline: control; quantity = remaining activity; result = 90.8 ± 4.32%
Compound = CC(=O)Nc1ccc(O)cc1; tested on = BRD4 (Homo sapiens, UniProt O60885); test = 19F NMR, item: tyrosine 65; setting = 746 µM; scale = baseline: free protein; quantity = chemical shift change; result = 0.03 ppm

For quick reference, copied from above:
Compound = CCNC(=O)/C=C/c1cccc(Br)c1; tested on = SLC6A19 (Homo sapiens, UniProt Q695T7); test = inhibitor, FLIPR membrane potential; test system = CHO-BC cells; setting = 0.001 µM, unit not given; scale = baseline: no inhibitor; quantity = remaining transport activity; result = 1.06
Compound = O=c1nc(SCc2cc(F)cc(C(F)(F)F)c2)nc(SCc2ccc3sccc3c2)[nH]1; tested on = TOP2A (Homo sapiens, UniProt P11388); test = ATPase activity; setting = 3.9 µM, together with: ATP 1 mM; quantity = ATP hydrolysis rate; result = 2.16 µM/min and 2.29 µM/min
